Experimental data pooled from the literature.
Numbers after ± are the reported error.
ESR1: Estrogen receptor (ESR1, Homo sapiens, UniProt P03372)
Sequence of UniProt P03372 (whole entry, looked up): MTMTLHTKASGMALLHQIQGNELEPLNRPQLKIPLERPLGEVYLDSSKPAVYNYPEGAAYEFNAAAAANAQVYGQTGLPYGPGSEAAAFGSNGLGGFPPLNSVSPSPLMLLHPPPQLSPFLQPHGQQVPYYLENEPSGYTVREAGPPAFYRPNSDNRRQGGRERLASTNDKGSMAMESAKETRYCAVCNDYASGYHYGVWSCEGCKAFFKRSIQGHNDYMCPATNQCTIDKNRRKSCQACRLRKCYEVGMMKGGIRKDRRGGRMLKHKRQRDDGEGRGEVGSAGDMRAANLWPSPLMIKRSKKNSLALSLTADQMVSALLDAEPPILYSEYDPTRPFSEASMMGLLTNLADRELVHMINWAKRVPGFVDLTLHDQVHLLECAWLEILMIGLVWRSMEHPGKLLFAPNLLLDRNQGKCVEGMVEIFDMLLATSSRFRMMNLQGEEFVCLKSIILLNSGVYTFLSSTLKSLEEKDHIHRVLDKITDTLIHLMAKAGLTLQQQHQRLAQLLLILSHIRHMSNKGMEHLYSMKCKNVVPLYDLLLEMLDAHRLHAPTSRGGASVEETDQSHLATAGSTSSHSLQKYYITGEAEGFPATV

| Compound | target | test | system | conditions | how to read | quantity | value |
| --- | --- | --- | --- | --- | --- | --- | --- |
| Oc1ccc(-c2cc(-c3ccc(OCCN4CCCCC4)cc3)n(-c3ccc(O)cc3)n2)cc1 | ESR1 | competitor, radioligand binding | – | concentration not given | baseline: estradiol | relative binding affinity | 5.92 ± 0.13 |
| CC(C)CSc1nc2c([nH]1)c(=S)n(C)c(=O)n2C | ESR1 | reporter gene, ERE luciferase | T47D-KBluc | 10 µM, 24 h, together with: estradiol 5 nM | baseline: maximal luciferase activity | reporter activity | 93% |
| CC/C(=C(\c1ccc(O)cc1)c1ccc(OCCN(C)CCOCCOCCOCCOCCOCCOCCOCCN(C)CCOc2ccc(/C(=C(/CC)c3ccccc3)c3ccc(O)cc3)cc2)cc1)c1ccccc1 | ESR1 | ligand, radioligand competition binding | – | concentration not given, together with: [3H]estradiol tracer | baseline: estradiol | relative binding affinity | 30.7% |
| CCCC(CC)Sc1nc2c([nH]1)c(=S)n(C)c(=O)n2C (stereo not shown) | ESR1 | reporter gene, ERE luciferase | T47D-KBluc | 10 µM, 24 h, together with: estradiol 5 nM | baseline: maximal luciferase activity | reporter activity | 72% |
| CCC(=C(c1ccc(O)cc1)c1ccc(OCCN(C)CCOCCOCCOCCOCCOCCOCCOCCOCCOCCN(C)CCOc2ccc(C(=C(CC)c3ccccc3)c3ccc(O)cc3)cc2)cc1)c1ccccc1 (mixture of isomers) | ESR1 | competitor, radioligand competition binding | – | concentration not given, together with: [3H]estradiol | baseline: estradiol | relative binding affinity | 23.9 ± 6.9% |
| C[C@@H]1Cc2c([nH]c3ccccc23)[C@@H](c2c(F)cc(/C=C/C(=O)O)cc2F)N1C12CC(C1)C2 | ESR1 | degrader, Western blot | MCF-7 | 100 nM, 24 h | – | ER degradation | 73% |
| CC/C(=C(\c1ccc(O)cc1)c1ccc(OCCN(C)CCOCCOCCOCCN(C)CCOc2ccc(/C(=C(/CC)c3ccccc3)c3ccc(O)cc3)cc2)cc1)c1ccccc1 | ESR1 | ligand, radioligand competition binding | – | concentration not given, together with: [3H]estradiol tracer | baseline: estradiol | relative binding affinity | 37.2% |
| CCCCCSc1nc2c([nH]1)c(=O)n(C)c(=O)n2C | ESR1 | reporter gene, ERE luciferase | T47D-KBluc | 10 µM, 24 h, together with: estradiol 5 nM | baseline: maximal luciferase activity | reporter activity | 109% |
| CC(Cc1ccc(Cl)cc1)=C(c1ccc(Cl)cc1)c1ccc(OCCN2CCCCC2)cc1 | ESR1 | reporter gene, agonist, yeast estrogen screen | – | 1 µM | baseline: DMSO | fold activation | 1.1 ± 0.12 fold |
| CCC(=C(c1ccc(O)cc1)c1ccc(OCCN(C)CCOCCOCCOCCOCCN(C)CCOc2ccc(C(=C(CC)c3ccccc3)c3ccc(O)cc3)cc2)cc1)c1ccccc1 (mixture of isomers) | ESR1 | ligand, radioligand competition binding | – | concentration not given, together with: [3H]estradiol tracer | baseline: estradiol | relative binding affinity | 14.9 ± 4% |
| CCCCCCSc1nc2c([nH]1)c(=S)n(C)c(=S)n2C | ESR1 | reporter gene, ERE luciferase | T47D-KBluc | 10 µM, 24 h, together with: estradiol 5 nM | baseline: maximal luciferase activity | reporter activity | 94% |
| O=S(=O)([C@H]1C[C@H]2O[C@@H]1C(c1ccc(O)cc1)=C2c1ccc(O)cc1)N(CC(F)(F)F)c1ccc(Cl)cc1 | ESR1 | – | – | concentration not given | baseline: estradiol | relative binding affinity | 0.054 |
| CCC(=C(c1ccc(O)cc1)c1ccc(OCCN(C)CCOCCOCCOCCOCCOCCOCCOCCOCCOCCOCCOCCN(C)CCOc2ccc(C(=C(CC)c3ccccc3)c3ccc(O)cc3)cc2)cc1)c1ccccc1 (mixture of isomers) | ESR1 | competitor, radioligand competition binding | – | concentration not given, together with: [3H]estradiol | baseline: estradiol | relative binding affinity | 18 ± 5% |
| CCC(=C(c1ccc(Cl)cc1)c1ccc(OCCCN(C)C)cc1)c1ccc(OC)cc1 | ESR1 | reporter gene, agonist, yeast estrogen screen | – | 1 µM | baseline: DMSO | β-galactosidase activity fold | 3.32 |
| O=C1c2c(O)cc(O)cc2-c2c(-c3ccc(O)cc3)oc3cc(O)cc1c23 | ESR1 | degrader, ELISA | MCF7 | 10 µM, 24 h | baseline: vehicle | reduction in protein level | 72.8% |
| CCC(=C(c1ccc(O)cc1)c1ccc(OCCN(C)CCOCCOCCOCCOCCOCCOCCOCCOCCOCCOCCN(C)CCOc2ccc(C(=C(CC)c3ccccc3)c3ccc(O)cc3)cc2)cc1)c1ccccc1 (mixture of isomers) | ESR1 | – | – | concentration not given, Z-Z:Z-E:E-E 1:2:1, together with: [3H]-estradiol | baseline: estradiol | relative binding affinity | 17.2 ± 2% |
| Oc1ccc(-c2cc(-c3ccc(OCCCN4CCCCC4)cc3)n(-c3ccc(O)cc3)n2)cc1 | ESR1 | competitive radioligand binding | – | concentration not given | baseline: estradiol, higher = stronger binding | relative binding affinity | 1.75 ± 0.43 |
| Cc1cc([C@H](C(=O)N2C[C@H](O)C[C@H]2C(=O)N[C@@H](CC(=O)N2CCC(N3CCC(C#Cc4ccc(C(=O)N[C@H]5C(C)(C)[C@H](Oc6ccc(C#N)c(Cl)c6)C5(C)C)cc4)CC3)CC2)c2ccc(-c3scnc3C)cc2)C(C)C)on1 | ESR1 | degrader, western blot | T47D | 0.01 to 1000 nM, 24 h | – | protein level | no effect |
| Cn1c(=O)c2[nH]c(CCc3ccccc3)nc2n(C)c1=O | ESR1 | reporter gene, ERE luciferase | T47D-KBluc | 10 µM, 24 h, together with: estradiol 5 nM | baseline: maximal luciferase activity | reporter activity | 82% |
| CCC(=C(c1ccc(Cl)cc1)c1ccc(OCCN2CCCCC2)cc1)c1ccc(OC)cc1 | ESR1 | reporter gene, agonist, yeast estrogen screen | – | 1 µM | baseline: DMSO | fold activation | 1.27 ± 0.04 fold |
| CCC(=C(c1ccc(O)cc1)c1ccc(OCCN(C)CCOCCOCCOCCOCCOCCN(C)CCOc2ccc(C(=C(CC)c3ccccc3)c3ccc(O)cc3)cc2)cc1)c1ccccc1 (mixture of isomers) | ESR1 | ligand, radioligand competition binding | – | concentration not given, together with: [3H]estradiol tracer | baseline: estradiol | relative binding affinity | 20.8 ± 5.5% |
| CC(=C(c1ccc(Cl)cc1)c1ccc(OCCN(C)C)cc1)c1ccc(Cl)cc1 | ESR1 | reporter gene, agonist, yeast estrogen screen | – | 1 µM | baseline: DMSO | fold activation | 0.8 ± 0.35 fold |
| CCCCCCCCCSc1nc2c([nH]1)c(=S)n(C)c(=O)n2C | ESR1 | reporter gene, ERE luciferase | T47D-KBluc | 10 µM, 24 h, together with: estradiol 5 nM | baseline: maximal luciferase activity | reporter activity | 23% |
| CC(=O)N[C@@H](Cc1c[nH]cn1)C(=O)N[C@@H](CCCCN)C(=O)N[C@@]1(C)C[C@@H](C)C/C=C\CCC[C@@](C)(C(=O)N[C@@H](CC(C)C)C(=O)N[C@@H](CCC(N)=O)C(=O)N[C@@H](CC(=O)O)C(=O)N[C@@H](CO)C(N)=O)NC(=O)[C@H](CCCNC(=N)N)NC(=O)[C@H](Cc2c[nH]cn2)NC(=O)[C@H](CC(C)C)NC1=O | Estrogen receptor, ligand-binding domain; with SRC3 (ESR1, Homo sapiens, UniProt P03372) | ERα/SRC3 interaction, inhibitor, TR-FRET | – | – | baseline: wild-type peptide | potency ratio | 12 fold |
| CCC(=C(c1ccc(Cl)cc1)c1ccc(OCCN2CCOCC2)cc1)c1ccc(Cl)cc1 | ESR1 | reporter gene, agonist, yeast estrogen screen | – | 1 µM | baseline: DMSO | fold activation | 1.21 ± 0.07 fold |
| Cn1c(=S)c2[nH]c(SCCCc3ccccc3)nc2n(C)c1=O | ESR1 | reporter gene, ERE luciferase | T47D-KBluc | 10 µM, 24 h, together with: estradiol 5 nM | baseline: maximal luciferase activity | reporter activity | 37% |
| CCC(=C(c1ccc(Cl)cc1)c1ccc(OCCN(CC)CC)cc1)c1ccc(OC)cc1 | ESR1 | reporter gene, agonist, yeast estrogen screen | – | 1 µM | baseline: DMSO | β-galactosidase activity fold | 3.27 |
| CCCCC(C)Sc1nc2c([nH]1)c(=S)n(C)c(=O)n2C (stereo not shown) | ESR1 | reporter gene, ERE luciferase | T47D-KBluc | 10 µM, 24 h, together with: estradiol 5 nM | baseline: maximal luciferase activity | reporter activity | 104% |
